# Experimental data of several laboratories.
# Every numbered part comes from another study and shows a few of its results, in no order. Positions count from the first letter of the parent shown.

# Study 1
# Target: RNA binding protein fox-1 homolog 2, RRM domain, GST-SBP tag (RBFOX2, Homo sapiens, UniProt O43251-10, residues 100-194)
# Technique: RNA Bind-n-Seq
# Form: RNA
# Matrix: in vitro
# Tested at: 365 nM
# Setting: natural RNA segment, single round, ends assumed
# Baseline: no-protein control
# Direction: higher = stronger binding
# All sequences stand within: GGGAGUUCUACAGUCCGACGAUC … UGGAAUUCUCGGGUGCCAA
# Residues (chain): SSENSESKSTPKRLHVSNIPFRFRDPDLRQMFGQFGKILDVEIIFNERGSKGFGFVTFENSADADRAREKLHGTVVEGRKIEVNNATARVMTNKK
Oligonucleotide,RBNS enrichment (R)
AGCCCCUCCCCCAACAAGAUCUCUUGGACUCAGGCCUCAGAGCCUGGCCUGGUUGUGAGUGUGUGUCCCUGUGUGUGUGUUGCGGGAGGGGAGGACUGGGGCUGGAAGUC,0.244
CAUAGCAAUAACAUUCCCACUGCCAGGGGUUCUUGAGCCAGCCAGGCCCUGCCAGUGGGGAAGGAGGCCAAGCAGUGCCUGCCUAUGAAAUUUCAACUUUUCCUUUCAUA,0.604
GAACAACCUCACUGAGGAUUUCCUCCCGGCAGAAAAGCAGCAAGCUCUGCAAAUAUCCCAAAGUUAUGCCUCUGAACACAUGUCUUCUAUAUGCAAGUUUUGUGAAACCU,0.455
UAUUAUGAGAAUGUUUUACAUUUAAACUGGUUUAGCACCUUUUAAGUUUAAAGCCCAUAGCUUCUUAUUACUAGUGACCUAGGGAAUUGUUAUUAACAUUAAGAGAUAUA,0.491
UGAGAAGCAGCUGAGUGAGGCAUGUUUUGACAGGAGGAACCCAGUUCUUUUCACUGUUGGUAUUUAUAGCACCUACCUUCAGAUUUUUCAGUAUGAUGUUUCUAUUUUCC,0.348
AUGGUGUCCACACUGACUACAUUGUCCCCAACCUGUUUUGGUAGACACACCAGCUCCUGUUGGGAUGGAUGGCCCGGAUUUUAUGGCAUCUGGAACAUGGGCACAGAGAG,0.421
UCUGAGAAGUUGUGAAGGGUCCAGAGCCAGUCUGCUUUAGAGUCCAAUAAAGUGUAGGUGUGGCAAUGCCUGGGUCUCUGUCUUCCUUUCUAAAAUUUUCAAGUGUUUCA,1.44
CAGGUGGUGUCAUGGAUGCUUUGGGGAAUCCUUCGCAGCUAUUUCCACCCCUGCCUCUGGGCACCCACCACUCACGGAUGGCAGAACCCAUUCAGUCUCCUACCUUGCAU,0.632

# Study 2
# Target: Histone acetyltransferase KAT6A, winged helix 1, GST fusion (KAT6A, Homo sapiens, UniProt Q92794, residues 1-85)
# Technique: protein binding microarray
# Form: double-stranded DNA, one strand shown
# Matrix: in vitro
# Tested at: not given
# Setting: 8-mer, flanks averaged, mean of 2 arrays, mostly near background
# Baseline: not given
# Direction: higher = stronger binding
# Residues (chain): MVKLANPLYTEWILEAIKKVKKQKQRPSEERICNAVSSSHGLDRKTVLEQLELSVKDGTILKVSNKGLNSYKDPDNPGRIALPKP
Oligonucleotide,E-score
GCCTCACA,-0.18
AGTGAGGA,-0.22
GCAGCATA,-0.0821
CTCCCGCA,0.304
CCATTCCC,-0.058
CATGGACA,-0.287
ATGGCCAT,-0.159
AATACATT,-0.142
AACGAATA,-0.2
AACGATCG,-0.0375
CGACAACG,0.0323
GGGTACCA,-0.0522
GGGTGGAA,-0.0723
ATGCTAGC,0.0233
TTCGACAA,-0.251
TAATGCTA,0.000415
AACCCCGG,0.233
GACGATGA,0.0604
AGCATGAA,-0.17
AGGGCATG,-0.158
CTAAAAAG,-0.02
CTTAGGCA,-0.255
GCGAGACA,0.1
GACGGCTC,0.357
ATTCGTAG,-0.075

# Study 3
# Target: CCNE2, cyclin fold, Cln2 fusion (human)
# Technique: yeast growth competition, sequencing
# Matrix: yeast
# Setting: weak parent motif
# Baseline: not given
# Direction: higher = stronger binding
# Starting sequence: FOXM1 docking peptide (human); PHLARPIKVESPP
Substitution,normalised enrichment score
S11A,-0.0922
P13A,-0.561
P6A,-0.447
K8A,-0.234
P12A,-1.21
H2A,-0.426

# Study 4
# Target: PABPC1L2, full length, GST fusion (mouse, UniProt A0ABA7IW68)
# Technique: RNAcompete
# Form: RNA
# Matrix: in vitro
# Tested at: 20 nM
# Setting: 7-mer, probes averaged, single round
# Baseline: mean of 7-mers
# Direction: higher = stronger binding
# Residues (chain): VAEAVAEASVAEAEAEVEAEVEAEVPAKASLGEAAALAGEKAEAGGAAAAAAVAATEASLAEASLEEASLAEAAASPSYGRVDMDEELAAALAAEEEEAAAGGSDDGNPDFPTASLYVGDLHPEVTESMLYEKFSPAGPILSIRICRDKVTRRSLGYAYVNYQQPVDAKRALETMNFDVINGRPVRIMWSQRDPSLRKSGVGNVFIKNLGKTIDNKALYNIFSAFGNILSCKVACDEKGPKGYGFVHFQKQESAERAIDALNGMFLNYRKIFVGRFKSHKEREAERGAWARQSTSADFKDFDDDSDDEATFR
Oligonucleotide,7-mer Z-score
GGCAUCC,-0.0609
UUAAUCG,-0.161
ACCAGCA,-0.0971
AAGUACG,0.126
ACCCGUA,-0.0554
GCGACUG,0.0315
GCUCACG,-0.322
AUGCUUA,-0.0826
UACAUAC,-0.24
UCGCAUG,-0.171
GCACAAC,-0.0264
GAAUACU,-0.0772
UCACAAC,-0.202
UGACUUC,-0.333
AGCAAGU,-0.128
UAGACGU,-0.248
UGAGCUG,-0.0989
CGCCCAC,-0.467
GAUGCCA,-0.133
UAGGACC,0.0497
GUUAUCC,-0.204
CGGGCGC,-0.121
GGGUCAA,0.282
CUUCUAC,-0.2
CUCUCCA,-0.257

# Study 5
# Target: Hepatocyte nuclear factor 3-alpha (Foxa1, Mus musculus, UniProt P35582, residues 1-468, full length assumed)
# UniProt P35582, sequence (whole entry, looked up): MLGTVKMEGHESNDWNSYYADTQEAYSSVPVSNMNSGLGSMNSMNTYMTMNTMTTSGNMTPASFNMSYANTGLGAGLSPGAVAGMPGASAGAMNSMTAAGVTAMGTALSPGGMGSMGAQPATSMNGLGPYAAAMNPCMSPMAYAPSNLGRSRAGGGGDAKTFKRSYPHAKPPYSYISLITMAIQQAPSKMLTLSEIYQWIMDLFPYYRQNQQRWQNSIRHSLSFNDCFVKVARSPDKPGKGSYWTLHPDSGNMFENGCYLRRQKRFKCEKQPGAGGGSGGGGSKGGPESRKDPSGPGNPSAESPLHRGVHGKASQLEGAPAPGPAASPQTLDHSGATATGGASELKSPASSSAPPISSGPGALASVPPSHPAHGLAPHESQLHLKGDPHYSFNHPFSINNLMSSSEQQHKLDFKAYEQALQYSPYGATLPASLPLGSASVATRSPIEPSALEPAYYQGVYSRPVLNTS
# Technique: EMSA with sequencing
# Form: double-stranded DNA, one strand shown
# Matrix: in vitro
# Tested at: 10 and 20 nM
# Setting: whole designed probe, mean of two concentrations, ends assumed
# Baseline: negative control set to 0
# Direction: higher = stronger binding
# All sequences stand within: GTGAGCGGTGCCCATTGATGGGGAAC … TTTCACTGGGATCGTGGGGAC
Oligonucleotide,normalised bound fraction
ATCTTCCCCCTCTTCCTTGCCCCACCAGCTCACCTTCCCGGGTTATTTGCAGATAGGAAAATAAATAAAGCCGGCATTCGTTAACCCTCTTCTGGCGCAAACTGCTGTTTGCTCTGGATGAATCATGGTCCTTTGGCGACGCCAGGCTCCGGGAGAGCAAAGCACCGTGTCGCATGACGAGTCCGGGGTGGCC,0.342 ratio
TGATGATACGTTATAGCATTTCTCTGCTCTGTAAGAGAGGCACCAGGGTCGTGTGCTGGCACATCCGGTGTCTGGGGTTTGTCCATTCGCTGCTGTTGACTCTGGTGTCGGCCGCTGGTGAGCTGGCTGTAGCTGGTCACCTCTGGGTGGTTTCTGGGGCGGTCGCAGGCTGACTAACACACCAAAGGTCAGC,0.0105 ratio
TCAAGTTTCATGGTCATTTCAGGAAAAAATTTCCATTAATAAAATGCAAATGAATACACCTGGGTGTCTCATTTACAAATAAATTTCTCGTTGATGTTTACTTTGTTTTTATATTCTTGCAAGGTTAAAAAGTTACCGTTTCTTGAATATTCCTTATTAATTTTTCTAGACATCAATTAATTTGTTGAATAGA,0.347 ratio
ATCCACGAACCTGGCCCTGTCTGGTAACCACAGTGAACCATCGCAAGATACAGCACTATGTGCCCAGTTGGGCTGGTAATGTCACACAAATGTGTCAACACTGGCACATCCTCAGGGACACGGATAATGACTCACTTTTGGAGAGGGACTAGACCTTCATCCTTGAGGTGAAGAAGATTTTCTCTCCAGGGTG,0.0487 ratio
TTAGGACCTCCCCTGCCACCATCTGGGCAGTGAAGCTCTGCCGGTGTGCTACTGGCAGTGTCCCGGGTTGTGTGTGGAGACACTGAGCACTGTAGATTACTTTAGAAGTTTATTGTCCCCAGAATGCTGCTCCCCCACAACTGTCTCCTGCAGCATGAAGGCTGACATTGTATCGTGGCTGTGTATCCACATG,-0.0318 ratio
